Measurements pooled from the literature.
Each numbered part is a random draw from the data of one study; scales do not carry over between parts. Changes are numbered by the printed parent chain.

Study 1
Target: ABI1, truncated, D143A, DHFR fusion (Arabidopsis thaliana)
Method: DHFR PCA, deep sequencing
Medium: yeast
Notes: methotrexate growth selection, single substitutions
With: (+)-ABA 0 µM
Reference: wild-type fitted maximum
Direction: higher = stronger binding
Quantity: relative binding score
Parent: PYL1, truncated, DHFR fusion (Arabidopsis thaliana); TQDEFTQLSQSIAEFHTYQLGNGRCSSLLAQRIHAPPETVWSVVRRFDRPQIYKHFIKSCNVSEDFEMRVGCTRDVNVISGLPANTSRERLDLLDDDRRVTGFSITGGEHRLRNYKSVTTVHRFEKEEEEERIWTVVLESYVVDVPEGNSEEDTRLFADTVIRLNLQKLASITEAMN; partner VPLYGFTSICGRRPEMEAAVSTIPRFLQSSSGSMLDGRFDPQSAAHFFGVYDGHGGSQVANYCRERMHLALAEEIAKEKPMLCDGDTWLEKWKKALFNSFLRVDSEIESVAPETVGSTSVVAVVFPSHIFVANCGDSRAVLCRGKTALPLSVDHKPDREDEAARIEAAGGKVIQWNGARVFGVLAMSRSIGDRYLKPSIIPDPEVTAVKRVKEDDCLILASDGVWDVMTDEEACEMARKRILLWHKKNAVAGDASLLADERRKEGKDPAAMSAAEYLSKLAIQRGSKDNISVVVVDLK
K126I: 14.9%
R113V: 28.7%
I172K: 1.93%
V40S: -1.88%
R69M: 7.06%
A30M: 31.3%
E147N: 3.49%
D159M: -13.2%
R155D: -10.7%
F103M: -3.21%
P146I: 15.9%
I172P: -9.44%
E152P: -7.01%
C72W: -0.132%
S11M: 20.1%

Study 2
Target: PABPC1L2, full length, GST fusion (mouse, UniProt A0ABA7IW68)
Method: RNAcompete
Form: RNA
Medium: in vitro
Concentration: 20 nM
Notes: 7-mer, probes averaged, single round
Reference: mean of 7-mers
Direction: higher = stronger binding
Quantity: 7-mer Z-score
Construct (chain): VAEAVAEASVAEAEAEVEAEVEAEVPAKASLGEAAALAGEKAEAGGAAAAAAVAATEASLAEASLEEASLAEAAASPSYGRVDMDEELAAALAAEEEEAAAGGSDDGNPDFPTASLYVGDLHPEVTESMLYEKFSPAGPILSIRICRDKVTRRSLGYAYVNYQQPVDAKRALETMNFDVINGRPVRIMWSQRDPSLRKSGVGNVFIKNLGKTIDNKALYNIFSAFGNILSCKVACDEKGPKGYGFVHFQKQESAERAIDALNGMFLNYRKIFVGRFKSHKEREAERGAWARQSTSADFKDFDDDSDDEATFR
ACCCUGC: -0.345
GUGUUAC: -0.251
UCCCUUC: -0.354
AUCCAUU: -0.251
UGAAACG: -0.0591
UAUUCCA: -0.18
GCUUAGC: -0.179
CCACCCC: -0.429
GCUAACG: -0.249
UUACCUG: -0.193
UGCAGAA: 0.323
CCUGAUU: -0.278
AUUACCC: -0.278
GAGUCCG: -0.358
UGAUCCC: -0.362
CGCUGAA: -0.186
UUUGUGA: -0.273
CCCUACG: -0.349
GUAUAGG: -0.0409
CGGGACA: 0.312
GAGACAG: 0.0478

Study 3
Target: CCNA1, cyclin fold, Cln2 fusion (human)
Method: yeast growth competition, sequencing
Medium: yeast
Notes: weak parent motif
Reference: not given
Direction: higher = stronger binding
Quantity: normalised enrichment score
Parent: PPP1R3F docking peptide (human); VAPRRVLFADEAL; partner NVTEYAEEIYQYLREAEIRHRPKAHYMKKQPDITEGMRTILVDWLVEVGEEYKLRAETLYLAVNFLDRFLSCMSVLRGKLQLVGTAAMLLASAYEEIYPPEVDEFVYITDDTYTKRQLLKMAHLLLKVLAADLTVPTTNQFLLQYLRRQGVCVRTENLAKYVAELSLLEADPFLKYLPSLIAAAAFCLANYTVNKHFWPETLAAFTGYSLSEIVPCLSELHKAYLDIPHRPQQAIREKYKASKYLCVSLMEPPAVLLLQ
VAPRRVLFADAAL [E11A]: 0.311
VAPRRVAFADEAL [L7A]: 0.621
AAPRRVLFADEAL [V1A]: 0.293
VAPRRVLAADEAL [F8A]: 0.218
VAPRRALFADEAL [V6A]: 0.187
VAPRKVLLADEAL [R5K F8L]: 0.251

Study 4
Target: Prothrombin, mature alpha-thrombin (F2, Homo sapiens, UniProt P00734)
Method: aptamer microarray, sandwich
Form: DNA with 2'F-ANA
Medium: in vitro
Concentration: 200 nM
Notes: whole 15-mer aptamer, many near background
With: Cy3 exosite-II aptamer, 400 nM
Direction: higher = stronger binding
Quantity: mean fluorescence intensity
Sequence: GGTTGGTGTGGTTGG
2'F-ANA at 3 11: 1130 a.u.
2'F-ANA at 2 3 5 6 10: 59.9 a.u.
2'F-ANA at 1 3 7 8 9 11 13 14: 99.7 a.u.
2'F-ANA at 1 3 4 5 6 9 11 12 13 14: 49.4 a.u.
2'F-ANA at 1 2 6 9 11 12 13: 184 a.u.
2'F-ANA at 2 3 5 6 8 10 11 12 14: 50.1 a.u.
2'F-ANA at 2 3 5 6 11 12 13: 122 a.u.
2'F-ANA at 1 2 4 7 8 9 12 13 15: 214 a.u.
2'F-ANA at 2 4 8 9 10 11 13 14 15: 57.8 a.u.
2'F-ANA at 2 3 8 11 12 13: 855 a.u.
2'F-ANA at 1 4 10 11 12 13: 55.3 a.u.
2'F-ANA at 1 2 3 5 6 7 9 10 11 12 14 15: 47.5 a.u.
2'F-ANA at 1 3 5 7 8 9 11 12 15: 168 a.u.
2'F-ANA at 2 4 5 10 12 13: 115 a.u.
2'F-ANA at 6 10 12 13: 183 a.u.
2'F-ANA at 2 4 7 11: 365 a.u.
2'F-ANA at 4 6 9 10 12 15: 91.3 a.u.
2'F-ANA at 3 5 8 10 11 12 13 14 15: 51.2 a.u.
2'F-ANA at 1 2 3 4 9: 209 a.u.
2'F-ANA at 1 2 3 6 9 13 14: 59.3 a.u.

Study 5
Target: CEBPA, bZIP domain (human)
Method: DHFR protein complementation
Medium: yeast
Notes: single substitutions, most at no-binding floor
Reference: wild-type JUN-FOS pair
Direction: higher = stronger binding
Quantity: binding fitness
Parent: JUN, bZIP domain (human); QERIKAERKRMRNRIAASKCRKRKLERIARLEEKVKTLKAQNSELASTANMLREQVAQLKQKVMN; partner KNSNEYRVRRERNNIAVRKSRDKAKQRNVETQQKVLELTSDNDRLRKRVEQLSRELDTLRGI
V35C: -1.44 natural log
S47K: -1.39 natural log
L45K: -1.57 natural log
K34M: -1.45 natural log
R30F: -1.52 natural log
K34R: -1.4 natural log
Q55M: -1.38 natural log
E44K: -1.14 natural log
T48R: -1.42 natural log
N42L: -1.48 natural log
K39A: -1.38 natural log
T48E: -1.37 natural log
A29F: -1.34 natural log

Study 6
Target: RING finger protein unkempt homolog, zinc fingers 1-6, GST-SBP tag (UNK, Homo sapiens, UniProt Q9C0B0, residues 30-357)
Method: RNA Bind-n-Seq
Form: RNA
Medium: in vitro
Concentration: not given
Notes: RNA with constant flanks, human and mouse sites, ends assumed
Reference: input RNA pool
Direction: higher = stronger binding
Quantity: bound/input enrichment
All sequences stand within: GGGAGUUCUACAGUCCGACGAUC … CAACAGAGGAUUGAGCAUCA
Residues (chain): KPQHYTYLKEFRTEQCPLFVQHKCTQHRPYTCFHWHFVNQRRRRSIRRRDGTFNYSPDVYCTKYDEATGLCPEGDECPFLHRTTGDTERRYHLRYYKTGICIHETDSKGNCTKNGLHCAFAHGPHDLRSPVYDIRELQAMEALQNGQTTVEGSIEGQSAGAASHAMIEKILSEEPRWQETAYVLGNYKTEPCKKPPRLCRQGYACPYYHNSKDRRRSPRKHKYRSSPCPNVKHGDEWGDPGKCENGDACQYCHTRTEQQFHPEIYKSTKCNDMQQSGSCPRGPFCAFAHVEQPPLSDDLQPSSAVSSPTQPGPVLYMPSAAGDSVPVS
AAACUAGGAUAUGCUGGAAAUACAGAGCCACAGUUUAUCAUCCCAUCAUGUAUUGCCAUUAAAGAGUCUGCAAAAGUGGGUGACCAAGCCCAGAGGAGGGUGAUGAAAGGCGUGGAUGAC: 0.532 ratio
UUCCCAAAGGCCUGGGAGCUUUUUGAAAAGAAAGAAAAAAGUGUGUUGGCUUUUUUUUUUUUUAGAAAGUUAGAAUUGUUUUUACCAAGAGUCUAUGUGGGGCUUGAUUCACCCUUCAUC: 2.22 ratio
AAGGUGCACCUGGAUUCUGCAGUCGCCCUGGCCGCUGAGAGCCCUGUUAAUAUGAUGCCCUGGCAGGGGGACACCAACAACAUGAUUGACCGAUUCGAUGUCCGUGCCCACCUGGACCAC: 0.0787 ratio
AGAGAACCAGCCCUGGAUGGCGGGUUUCAGAUGCAUUAUGAGAAGACCCCGUUUGAUCAGUUAGCUUUUAUCGAAGAGCUUUUUUCACUGAUGGUUGUCAAUCGUCUGACCGAAGAACUC: 0.48 ratio
AAGAGUGCAGAUGACUUUAUAGAUAAGCACAUUGCUGAGCUAAUAUUUUACAUGGAAGAGCUUAGAGCACAUGUCAGGAAGUAUGGGCCUGUCAUGCAGAGGUACUACGUGCAAUACCUC: 0.503 ratio
AGGGAACGGGGCAUCGCGGUUCCAACGAUUAACUGCUGAAGUACUGAUCGAGUUCUGCAUUUCUUCAAUGAGGAACUACAGGCUGAUCUUCUGCCAUAAUCUCAAACAGCCAUAAAUGAC: 0.0949 ratio
GGAACGUCAUUUGUCAUGGAUGUUCUACGCCCACAGAUUGUAACGUUCGAUGGACGGAAUUAUAGAAAGAAUCCCAUCCAGGAGAAACAGUACCAACAUGAAGAAGACGAGGAUUUCUAU: 0.172 ratio
UUUUUUUUGUAACCACUGUCUUGAUGGCAAAAUAAUUAUGGUAAAAAACAAGUCUCGUGUUUAUUAUUCCUUAAGAACUCUGUGUUAUAUUACCAUGGAACGCCUAAUAAAGCAAAAUGU: 0.283 ratio
UCACUACACUUGCCAAAAAACAACAGUCUUUAUGUCCUUACACCAGACUUGCCACCGCCUUCAUCAUCCAGCCAUGCUGGUGCCCUGCAGGAAUCAUUAAAUCAAAACUUCAUGCUGAUC: 0.477 ratio
CCAAUUUUCUGGAUUGGACUGAUCAGUUCAGUUUGCUGUGUGUUUGCUCAAACAGAUGAAAAUAGAUGUUUAAAAGCAAAUGCCAAAUCAUGUGGAGAAUGUAUACAAGCAGGGCCAAAU: 0.181 ratio
UUCACCCCUGAUGGGAACCACUUCCUCUACUCUAGCUGGUCUGAUUACAUUCAUAUCUGCAAUAUCUAUGGUGAGGGAGAUACACACACUGCCCUGGAUCUCAGGCCAGAUGAGCGUCGC: 0.141 ratio
